Measured values of several laboratories.
Numbered parts are unrelated; each lists some results of a single study.

Sample 1
Target: Histone acetyltransferase KAT6A, winged helix 1, GST fusion (KAT6A, Homo sapiens, UniProt Q92794, residues 1-85)
Technique: protein binding microarray
Form: double-stranded DNA, one strand shown
Sample: in vitro
Tested at: not given
Notes: 8-mer, flanks averaged, mean of 2 arrays, mostly near background
Relative to: not given
Reading: higher = stronger binding
Quantity: E-score
Residues (chain): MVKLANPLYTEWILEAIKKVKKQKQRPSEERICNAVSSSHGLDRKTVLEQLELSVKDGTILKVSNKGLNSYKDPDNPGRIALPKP
CGATATTA: 0.0847
ACGAAACC: 0.0419
AAAACGTG: -0.0803
CGGCATTC: 0.366
CGCTTTCA: 0.0702
ATATGGTC: -0.178
CTGATGAA: -0.168
AGTGCGTC: 0.158
ATTTCACA: -0.205
GTGTCTAA: -0.261
GGTTGTAA: -0.173
ATTGTAGA: -0.176
CTCCTCAG: -0.132
CCTCGACG: 0.0905
GCACGGGC: 0.287
CCCATGTC: -0.221
GGACGATA: -0.0858
ATAGATGC: 0.0228
GCGCTAAA: 0.275
ACTGGAGC: 0.104
ACACCCAC: -0.223
ACTCCTTC: -0.244
CCCGACCC: 0.153
GCAATGTA: -0.0812
CAGGTATG: -0.105

Sample 2
Target: TAR DNA-binding protein 43, full length, His tag (TARDBP, Homo sapiens, UniProt Q13148, residues 1-414)
Technique: RNA Bind-n-Seq
Form: RNA
Sample: in vitro
Tested at: 20 nM
Notes: 6-mer, flanks averaged, single round
With: 150 mM KCl
Relative to: input library
Reading: higher = stronger binding
Quantity: 6-mer enrichment (R)
CAGUUU: 0.625
CCAAAG: 0.766
CGGGCU: 1.76
UCAUCA: 0.538
ACUACG: 0.68
UGCUUU: 0.64
CCGCCA: 0.679
AACAUU: 0.598
CCCAUG: 0.711
GGUAUU: 0.825
CCGCUC: 0.612
UUGCCU: 0.657
CUGUCU: 0.593
AUUCGA: 0.572
CUCAGA: 0.623
UCCCAA: 0.628
AGAGAG: 1.73
UUAGCA: 0.629
UUUGGA: 0.763
AAUGUA: 0.77
CUGUGU: 0.867
UCCGUU: 0.574
UCUGUU: 0.612
UCAGCA: 0.658
AUCGUC: 0.624

Sample 3
Target: Interferon regulatory factor 5, full length, phosphomimetic (IRF5, Homo sapiens, UniProt Q13568-2, residues 1-514, K96S/S451D/S453D/S456D/S462D)
Technique: protein-binding microarray
Form: double-stranded DNA, one strand shown
Sample: in vitro
Tested at: 250 nM
Notes: 60-bp whole probe
With: salmon DNA 0.4 mg/ml
Relative to: random background probes
Reading: higher = stronger binding
Quantity: log fluorescence
All sequences stand within: GCCTAGCAC … GTCTTGATTCGCTTGACGCTGCTG
GACGGAGTGGACACTGGGGACGTGCTA: -0.515 z-score
TTGGATTCCAGTTTCGATTAGTGCTAG: 9.76 z-score
TTAGGTATCCTTCTGCTTTAGTGCTAG: 0.394 z-score
GACGGTATCCACTTTCGGGACGTGCTA: 6.81 z-score
TCATTCTTCCCTGTGAAACTGTGCTAG: 0.623 z-score
TCACTCTTCTGCTTCCTACTGTGCTAG: 0.72 z-score
GACGGTCTCTTTTTCCTGACGTGCTAG: 0.139 z-score
TTAGATATCAGACTGCATTAGTGCTAG: 0.176 z-score
GACGTTTTCGACACTGGGGACGTGCTA: 2.62 z-score
CCATACTTCCCACTGGTCTTGTGCTAG: 0.17 z-score
TCATTTCTCTGTTCTAGACTGTGCTAG: 1.48 z-score
GACGGTATCAGTCTCGGGACGTGCTAG: 1.06 z-score
GACGGACTGGACTTTAGGGACGTGCTA: -0.571 z-score
TTAGAACTAAGTATCGATTAGTGCTAG: 6.51 z-score
TCAATTTTCACGGTGGGACTGTGCTAG: 0.481 z-score
TTAGGACTCCTTCTCCTTTAGTGCTAG: -0.304 z-score
TCAAGGTCCCTTTTCATACTGTGCTAG: 0.217 z-score
GTCCCCTGTCGGGAGGTCAGGTGCTAG: -0.475 z-score
TTAGATATCGGGTATAGATTAGTGCTA: 2.52 z-score
GACGGACTGGGGGTTCGGGACGTGCTA: -0.394 z-score

Sample 4
Target: Prothrombin, mature alpha-thrombin (F2, Homo sapiens, UniProt P00734)
Technique: aptamer microarray, sandwich
Form: DNA with 2'F-ANA
Sample: in vitro
Tested at: 200 nM
Notes: whole 15-mer aptamer, many near background
With: Cy3 exosite-II aptamer, 400 nM
Reading: higher = stronger binding
Quantity: mean fluorescence intensity
Strand: GGTTGGTGTGGTTGG
2'F-ANA at 3 4 6 7 8 11 12: 779 a.u.
2'F-ANA at 3 4 5 7 8 11 13: 74.7 a.u.
2'F-ANA at 1 6 7 11 15: 141 a.u.
2'F-ANA at 1 2 3 4 7 9 13 14 15: 58.1 a.u.
2'F-ANA at 2 3 4 5 6 7 8 11 12 14 15: 56.5 a.u.
2'F-ANA at 2 8 9 10 11 13 15: 102 a.u.
2'F-ANA at 2 5 6 9 13 14 15: 45.4 a.u.
2'F-ANA at 4 5 6 7 8 9 13 14 15: 83.4 a.u.
2'F-ANA at 2 4 8 11 12 14 15: 137 a.u.
2'F-ANA at 1 2 3 5 7 8 9 11 15: 59.6 a.u.
2'F-ANA at 1 8 9 11 12 15: 287 a.u.
2'F-ANA at 2 5 6 7 8 9 10 13 14: 102 a.u.
2'F-ANA at 1 3 4 6 7 9 11 12 13 14 15: 66.8 a.u.
2'F-ANA at 1 3 6 12 13: 451 a.u.
2'F-ANA at 1 3 4 5 9 10 14 15: 49.7 a.u.
2'F-ANA at 1 3 12 13: 490 a.u.
2'F-ANA at 1 2 5 8 11 12 15: 109 a.u.
2'F-ANA at 6 10 11 13 15: 128 a.u.
2'F-ANA at 2 3 5 6 7 9 11 12 13 15: 99.3 a.u.
2'F-ANA at 1 4 6 7 8 9 10 11 12: 55.6 a.u.
2'F-ANA at 1 5 7 8 11 15: 87.7 a.u.

Sample 5
Target: RNA binding protein fox-1 homolog 2, RRM domain, GST-SBP tag (RBFOX2, Homo sapiens, UniProt O43251-10, residues 100-194)
Technique: RNA Bind-n-Seq
Form: RNA
Sample: in vitro
Tested at: 365 nM
Notes: natural RNA segment, single round, ends assumed
Relative to: no-protein control
Reading: higher = stronger binding
Quantity: RBNS enrichment (R)
All sequences stand within: GGGAGUUCUACAGUCCGACGAUC … UGGAAUUCUCGGGUGCCAA
Residues (chain): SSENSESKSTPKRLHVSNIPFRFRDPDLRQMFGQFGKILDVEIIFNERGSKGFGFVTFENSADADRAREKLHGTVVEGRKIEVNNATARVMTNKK
AACUAUUUACAGAACAUGCAUCCUUAAACUGUGACUUCUCACCUAGUGCAGAACUUUUACCAGGCUGUAAAAGCAAAACCUCGUAUCAGCUCUGGAACAAUACCUGCAGU: 0.361
AGAACUUAUUUGAGAAGGAAGCUCUCGUUCCACAUUCCUAGCAACUAUAUUCUCAGGCACACAUAGGCGCACAGAGACAGCUUCCUAGUAACUCACAUCAAUUUCGUUUA: 0.584
UGAAAGUGCCAGGUGCUAGAUUCCUCCUCCUUGGAAUUGUGUUAGGCUAGUUGGUCCUCUUUGAGGAAGCAUAUAGUACAGACUUCUUAGCACUUAGGAAGCUUCUCCAA: 0.319
UCUUCUACUCUAGAAGAAAGACUUUGGAAGCAGCUGCUGCUGCUGCCACCACUCCUGUCAGCAAGUGCUCAGAGCAGGUGGGAGGCACAGAUUGUCCGUGGGAGGGCUCC: 0.438
CAAGACAUCCCUUUAGGUGACAAGACUCUAUAACAGUGGUUACCUGUCUCCAUGUUGACACUUCAUCCUAGAUUUAAGGAGAGGCAUCAAUUUUUUUUUUUUUUUGCCUC: 0.287
ACUAUAAAAAGCAAUAAAUGCAAACAAAACAAAAAAGUUCAUGGUAAAAUGACGGAAUCAGCAUGUGAGUAAGGAUCGCUUUCCUCAAAGGUUACCCUCCCACCCCCGCU: 3.11
AAAGCCUGUGAUGGAGGAGCACAAGACCCUGUCUGCUGAGGGCCCAUGCUCCUCUCAUGGGUUUCUUCCCACCUAGCCAGUGCCUUCAUUUGCUUGUUGUACAGUUUCUU: 1.99
UCUAAACCUUAGAGGAAGCCAGAAUAUGUGAUCAUACCAGGUGAGGAAAGUUAGGAGAUAUUCAUCUUAAGAGAUAUCCUAUUUGGCAGUCACAUGUUACACUUGAGCAA: 0.245
UCAGACGCUGGCUUGAGAGGAGCCCCGCACCUUGGGCACCAGGGAGUGCCAUCCGCCUCCCAGUCCGGUGUCACUCACCCAACCUUGUACAUGACUAGCUCUCCCAGUGU: 0.572
GUCUCAAAAAGAAGUCUUAAGACGGCAUUGCUUAAGGUGCUUCAUUCCCUAAUCCCCUUUUGAUUUGUUUCCAAAAUAAAAGAGAAUCUUUUCUUCCCUACCCCAGGCUU: 0.59
CACCAUCCGGAUGGCCUCCCACAGGCCCUCCAGCCUCAAUCCUCCGUGCUUCCUUUUUUCCUUUCCCAACAGUCCAAGAGCGCAGGAUCCAACUUUCUAGUCACGCUGUU: 0.488
CUGCACUUGCUGGGUUCCUCCCCUCUGCCUCCUUUCUUGAACUCAGAGGUAGGGACUAAGCACCAGGUGCCAGCAGGCCCUCCUGCUGUGGCCACUCCAGAGUGCUCCGU: 0.198
